Published values from different studies.
Each numbered part is a random draw from the data of one study; scales do not carry over between parts. Several values in a cell are separate wells, animals, samples, runs or records.
UniProt P00519, sequence (whole entry, unmodified, looked up): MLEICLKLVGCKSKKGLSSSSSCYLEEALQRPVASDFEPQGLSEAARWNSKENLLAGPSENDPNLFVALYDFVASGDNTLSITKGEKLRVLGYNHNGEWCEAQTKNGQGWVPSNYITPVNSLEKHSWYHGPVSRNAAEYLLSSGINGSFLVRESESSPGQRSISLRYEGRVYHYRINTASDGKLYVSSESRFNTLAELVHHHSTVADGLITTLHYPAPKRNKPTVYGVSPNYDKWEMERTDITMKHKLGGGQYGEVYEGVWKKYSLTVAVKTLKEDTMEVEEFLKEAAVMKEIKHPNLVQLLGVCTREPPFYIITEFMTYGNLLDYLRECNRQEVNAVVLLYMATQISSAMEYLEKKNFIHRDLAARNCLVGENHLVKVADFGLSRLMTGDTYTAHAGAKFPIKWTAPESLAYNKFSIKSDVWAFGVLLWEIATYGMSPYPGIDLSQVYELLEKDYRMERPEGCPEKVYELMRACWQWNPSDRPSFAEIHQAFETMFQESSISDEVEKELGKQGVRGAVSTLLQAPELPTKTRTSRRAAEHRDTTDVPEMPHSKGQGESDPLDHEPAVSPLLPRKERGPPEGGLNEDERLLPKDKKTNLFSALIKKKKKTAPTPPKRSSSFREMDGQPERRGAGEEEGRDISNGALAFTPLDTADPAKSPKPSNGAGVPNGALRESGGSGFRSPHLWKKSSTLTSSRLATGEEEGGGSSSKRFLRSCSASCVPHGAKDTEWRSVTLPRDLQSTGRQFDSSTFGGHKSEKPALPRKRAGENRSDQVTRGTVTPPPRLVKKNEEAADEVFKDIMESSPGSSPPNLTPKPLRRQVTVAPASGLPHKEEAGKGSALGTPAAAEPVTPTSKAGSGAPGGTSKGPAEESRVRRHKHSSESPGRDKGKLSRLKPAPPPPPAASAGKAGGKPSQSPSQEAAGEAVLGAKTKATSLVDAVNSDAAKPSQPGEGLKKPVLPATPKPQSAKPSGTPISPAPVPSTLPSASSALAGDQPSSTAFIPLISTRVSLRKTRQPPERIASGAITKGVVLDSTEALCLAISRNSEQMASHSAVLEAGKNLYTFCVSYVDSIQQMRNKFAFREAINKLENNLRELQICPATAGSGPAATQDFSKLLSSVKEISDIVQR
UniProt Q16816, sequence (whole entry, looked up): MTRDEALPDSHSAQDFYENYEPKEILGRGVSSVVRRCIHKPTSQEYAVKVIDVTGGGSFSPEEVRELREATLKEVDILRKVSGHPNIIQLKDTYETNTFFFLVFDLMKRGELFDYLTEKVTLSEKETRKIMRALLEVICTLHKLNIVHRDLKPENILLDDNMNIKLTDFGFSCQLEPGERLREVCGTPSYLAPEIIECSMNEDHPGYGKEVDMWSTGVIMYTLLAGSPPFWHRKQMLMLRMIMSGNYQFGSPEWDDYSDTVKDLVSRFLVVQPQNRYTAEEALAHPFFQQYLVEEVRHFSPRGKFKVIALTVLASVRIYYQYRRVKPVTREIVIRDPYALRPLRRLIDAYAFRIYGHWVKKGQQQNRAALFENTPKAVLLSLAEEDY
UniProt Q16644, sequence (whole entry, looked up): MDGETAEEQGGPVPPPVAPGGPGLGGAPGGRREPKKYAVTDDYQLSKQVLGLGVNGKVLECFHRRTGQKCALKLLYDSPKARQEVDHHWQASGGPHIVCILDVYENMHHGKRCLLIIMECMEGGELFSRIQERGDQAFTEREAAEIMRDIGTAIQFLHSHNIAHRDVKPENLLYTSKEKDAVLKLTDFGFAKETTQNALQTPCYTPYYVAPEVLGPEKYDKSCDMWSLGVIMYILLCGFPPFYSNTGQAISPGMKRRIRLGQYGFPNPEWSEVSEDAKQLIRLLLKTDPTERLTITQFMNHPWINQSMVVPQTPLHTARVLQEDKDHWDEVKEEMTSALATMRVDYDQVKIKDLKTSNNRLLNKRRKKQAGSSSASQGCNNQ
UniProt P06493, sequence (whole entry, looked up): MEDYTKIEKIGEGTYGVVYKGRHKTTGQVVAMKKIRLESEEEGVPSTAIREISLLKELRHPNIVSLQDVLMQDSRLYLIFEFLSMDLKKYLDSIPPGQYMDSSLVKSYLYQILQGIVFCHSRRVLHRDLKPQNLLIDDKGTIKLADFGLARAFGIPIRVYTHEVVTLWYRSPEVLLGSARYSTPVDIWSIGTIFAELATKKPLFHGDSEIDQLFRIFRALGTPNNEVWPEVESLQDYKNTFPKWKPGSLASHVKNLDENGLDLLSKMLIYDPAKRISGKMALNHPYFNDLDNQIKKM
UniProt O95819, sequence (whole entry, looked up): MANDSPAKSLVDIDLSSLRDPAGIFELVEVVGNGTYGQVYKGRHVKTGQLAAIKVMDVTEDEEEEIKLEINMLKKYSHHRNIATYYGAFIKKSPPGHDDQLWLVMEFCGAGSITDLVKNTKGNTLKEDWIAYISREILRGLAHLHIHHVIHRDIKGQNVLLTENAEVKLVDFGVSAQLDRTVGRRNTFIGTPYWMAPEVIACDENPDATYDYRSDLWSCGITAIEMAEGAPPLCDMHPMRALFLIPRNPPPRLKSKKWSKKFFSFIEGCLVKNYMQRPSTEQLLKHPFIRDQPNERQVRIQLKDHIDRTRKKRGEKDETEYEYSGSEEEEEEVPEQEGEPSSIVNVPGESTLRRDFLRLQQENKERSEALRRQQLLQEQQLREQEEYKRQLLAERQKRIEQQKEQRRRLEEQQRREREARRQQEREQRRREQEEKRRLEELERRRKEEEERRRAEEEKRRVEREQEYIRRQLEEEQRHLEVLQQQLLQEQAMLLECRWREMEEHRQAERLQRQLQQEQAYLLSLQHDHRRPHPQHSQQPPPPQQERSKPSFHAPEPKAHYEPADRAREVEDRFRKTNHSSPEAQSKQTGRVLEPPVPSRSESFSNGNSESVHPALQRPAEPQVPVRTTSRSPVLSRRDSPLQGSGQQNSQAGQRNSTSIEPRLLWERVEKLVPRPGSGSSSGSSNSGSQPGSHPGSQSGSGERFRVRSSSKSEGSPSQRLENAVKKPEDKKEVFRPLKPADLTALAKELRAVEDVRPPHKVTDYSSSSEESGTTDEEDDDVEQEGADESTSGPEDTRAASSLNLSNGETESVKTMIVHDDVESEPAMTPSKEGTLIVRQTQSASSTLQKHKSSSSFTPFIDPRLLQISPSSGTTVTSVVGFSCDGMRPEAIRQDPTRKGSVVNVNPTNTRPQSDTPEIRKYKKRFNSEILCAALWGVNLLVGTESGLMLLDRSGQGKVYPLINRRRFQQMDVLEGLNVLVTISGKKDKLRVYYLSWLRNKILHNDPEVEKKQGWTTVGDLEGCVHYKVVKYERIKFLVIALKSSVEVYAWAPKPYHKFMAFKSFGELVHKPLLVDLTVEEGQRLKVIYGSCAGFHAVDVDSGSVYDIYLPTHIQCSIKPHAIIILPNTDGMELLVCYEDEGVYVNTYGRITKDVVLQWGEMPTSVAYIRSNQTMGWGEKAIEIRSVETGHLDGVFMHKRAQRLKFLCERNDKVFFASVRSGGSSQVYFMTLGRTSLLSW
UniProt P51451, sequence (whole entry, looked up): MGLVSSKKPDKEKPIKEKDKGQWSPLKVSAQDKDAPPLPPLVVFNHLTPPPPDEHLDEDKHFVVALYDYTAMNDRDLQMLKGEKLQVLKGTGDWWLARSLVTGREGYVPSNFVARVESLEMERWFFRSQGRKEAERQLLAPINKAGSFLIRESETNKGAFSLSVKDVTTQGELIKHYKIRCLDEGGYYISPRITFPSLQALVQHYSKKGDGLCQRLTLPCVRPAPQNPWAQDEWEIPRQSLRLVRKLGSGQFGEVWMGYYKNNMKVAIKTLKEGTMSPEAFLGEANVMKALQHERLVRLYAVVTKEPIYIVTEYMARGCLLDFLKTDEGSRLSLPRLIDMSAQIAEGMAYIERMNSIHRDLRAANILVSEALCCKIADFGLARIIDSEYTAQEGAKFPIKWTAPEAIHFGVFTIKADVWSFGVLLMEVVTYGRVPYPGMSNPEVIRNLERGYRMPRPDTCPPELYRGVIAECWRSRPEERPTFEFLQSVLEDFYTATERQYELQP
UniProt O15530, sequence (whole entry, looked up): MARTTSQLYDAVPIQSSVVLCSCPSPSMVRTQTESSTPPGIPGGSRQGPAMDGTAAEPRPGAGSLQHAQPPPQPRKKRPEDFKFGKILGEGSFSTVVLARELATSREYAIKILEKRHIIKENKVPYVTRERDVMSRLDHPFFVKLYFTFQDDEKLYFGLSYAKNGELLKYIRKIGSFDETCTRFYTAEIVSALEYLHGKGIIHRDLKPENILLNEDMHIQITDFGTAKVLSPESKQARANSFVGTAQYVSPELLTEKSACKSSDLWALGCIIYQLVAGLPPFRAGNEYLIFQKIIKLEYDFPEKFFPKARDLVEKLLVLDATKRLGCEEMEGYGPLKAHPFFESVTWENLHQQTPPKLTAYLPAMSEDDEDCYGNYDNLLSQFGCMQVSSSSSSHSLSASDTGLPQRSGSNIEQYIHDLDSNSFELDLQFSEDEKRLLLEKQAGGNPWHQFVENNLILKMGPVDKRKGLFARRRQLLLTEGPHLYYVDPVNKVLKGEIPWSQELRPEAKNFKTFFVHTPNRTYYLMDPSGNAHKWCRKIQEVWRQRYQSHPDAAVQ
UniProt Q9UEE5, sequence (whole entry, looked up): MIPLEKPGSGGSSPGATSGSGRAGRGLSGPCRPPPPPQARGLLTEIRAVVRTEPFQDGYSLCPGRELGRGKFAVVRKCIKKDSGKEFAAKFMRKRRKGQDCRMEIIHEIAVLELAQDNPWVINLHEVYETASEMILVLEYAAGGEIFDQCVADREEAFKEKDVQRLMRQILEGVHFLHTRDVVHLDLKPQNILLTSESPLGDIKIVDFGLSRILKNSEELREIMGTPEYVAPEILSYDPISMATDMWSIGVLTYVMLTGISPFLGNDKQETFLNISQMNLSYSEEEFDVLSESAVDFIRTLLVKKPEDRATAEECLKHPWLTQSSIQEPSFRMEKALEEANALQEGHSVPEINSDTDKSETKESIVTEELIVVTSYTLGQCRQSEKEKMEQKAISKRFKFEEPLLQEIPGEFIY

Set 1
Cell line: HaCaT
Tested at: 100 µM
Time: 60 h
Measurement: viability
SMILES = CCCCC1=NC2(CCCC2)C(=O)N1Cc1ccc(-c2ccccc2-c2nnn[nH]2)cc1; value = 108%
SMILES = NS(=O)(=O)c1cc2c(cc1Cl)N=C(CSCc1ccccc1)NS2(=O)=O; value = 130%
SMILES = Cc1cccc(C)c1OCC(C)N (centres unmarked); value = 111%
SMILES = CC1=C(C(=O)O)N2C(=O)[C@@H](NC(=O)[C@H](N)c3ccc(O)cc3)[C@H]2SC1; value = 170%
SMILES = NC[C@H]1O[C@H](O[C@H]2[C@H](O[C@@H]3O[C@H](CO)[C@@H](O)[C@H]3O)[C@@H](O)[C@H](N)C[C@@H]2N)[C@H](N)[C@@H](O)[C@@H]1O; value = 140%
SMILES = CCCC(=O)OCOC(=O)C1=C(C)NC(C)=C(C(=O)OC)C1c1cccc(Cl)c1Cl (centres unmarked); value = 27.3%
SMILES = C1N2CN3CN1CN(C2)C3; value = 142%
SMILES = Cc1c(NC(=O)c2cccnc2)c(=O)n(-c2ccccc2)n1C; value = 144%
SMILES = N=C(N)N; value = 143%

Set 2
SMILES: C[C@@H]1[C@H](O)[C@@H](C)/C=C/C=C/C=C/C=C/C=C/C=C/C=C/[C@H](O[C@@H]2O[C@H](C)[C@@H](O)[C@H](N)[C@@H]2O)C[C@@H]2O[C@](O)(C[C@@H](O)C[C@@H](O)[C@H](O)CC[C@@H](O)C[C@@H](O)CC(=O)O[C@H]1C)C[C@H](O)[C@H]2C(=O)O
Cell line: THP-1
Measurement: inhibition
tested at = 20 µM; setting = cytotoxicity; value = 100%
observed = host cell growth; tested at = 2 µM; value = 54% and 57% and 49% and 56%
observed = host cell growth; tested at = 4 µM; value = 93% and 99%
observed = host cell growth; tested at = 0.004 µM; value = -1.89% and -0.1% and -1.01% and -3.27% and 1.8% and -3.75%

Set 3
Organism: Sarcocystis neurona
Observed: parasite growth
Tested at: 10 µM
Measurement: inhibition
Structure (SMILES) = CS(=O)(=O)c1ccc(-c2cc(Br)sc2-c2ccc(F)cc2)cc1; value = 15%
Structure (SMILES) = O=C1CC2(CCCC2)CC(=O)N1CCCCN1CCN(c2ncccn2)CC1; value = -24.8%
Structure (SMILES) = O=C1c2c(O)ccc(O)c2C(=O)c2c(NCCNCCO)ccc(NCCNCCO)c21; value = 59.9%
Structure (SMILES) = OCCN1CCN(CCCN2c3ccccc3Sc3ccc(Cl)cc32)CC1; value = 89.8%
Structure (SMILES) = C[C@]12CCC(=O)C=C1CC[C@@H]1[C@@H]2CC[C@@]2(C)[C@H]1CC[C@]2(O)C(=O)CO; value = 19.4%
Structure (SMILES) = S=c1[nH]cnc2nc[nH]c12; value = 26.3%
Structure (SMILES) = CCOC(=O)CCC(=O)O[C@H]1[C@H](O[C@@H]2[C@@H](C)[C@H](O[C@H]3C[C@@](C)(OC)[C@@H](O)[C@H](C)O3)[C@@H](C)C(=O)O[C@H](CC)[C@@](C)(O)[C@H](O)[C@@H](C)C(=O)[C@H](C)C[C@@]2(C)O)O[C@H](C)C[C@@H]1N(C)C; value = 19.1%
Structure (SMILES) = Cc1c(O)cccc1C(=O)N[C@@H](CSc1ccccc1)[C@H](O)CN1C[C@H]2CCCC[C@H]2C[C@H]1C(=O)NC(C)(C)C; value = 62.6%
Structure (SMILES) = Cc1ccnc2c1NC(=O)c1cccnc1N2C1CC1; value = -23.5%

Set 4
SMILES: CC(=O)N[C@@H](Cc1c[nH]c2ccccc12)C(=O)N[C@@H](CCC(=O)C=[N+]=[N-])C(=O)OC(C)C
Host: C57BL/6 CES1-/- mice, EL4 tumour
Route: subcutaneous
Dose: 0.3 mg/kg/day DON equivalent
Time: 5 days
Measurement: metabolite peak intensity
technique = UPLC-MS/MS metabolomics; refers to = N1-methyl-2-pyridone-5-carboxamide; sample = EL4 tumour; setting = normalised to tissue mass; direction = higher = more metabolite; value = 554000 a.u. and 507000 a.u. and 898000 a.u. and 774000 a.u. and 576000 a.u. and 920000 a.u.
technique = UPLC-MS/MS; refers to = 5-hydroxyindoleacetate; sample = EL4 tumour; value = 73700 a.u. and 69400 a.u. and 47500 a.u. and 130000 a.u. and 33400 a.u.
technique = UPLC-MS/MS metabolomics; refers to = N1-methylinosine; sample = EL4 tumour; setting = normalised to tissue mass; direction = higher = more metabolite; value = 982000 a.u. and 1.33e+06 a.u. and 831000 a.u. and 654000 a.u. and 1.21e+06 a.u. and 879000 a.u.
technique = UPLC-MS/MS; refers to = imidazole propionate; cell line = EL4; sample = tumour; setting = normalised to tissue mass; direction = higher = more metabolite; value = 598000 a.u. and 690000 a.u. and 643000 a.u. and 614000 a.u. and 925000 a.u. and 1.45e+06 a.u.
technique = UPLC-MS/MS; refers to = 3-(4-hydroxyphenyl)lactate; sample = EL4 tumour; value = 1.74e+06 a.u. and 1.51e+06 a.u. and 1.24e+06 a.u. and 785000 a.u. and 1.43e+06 a.u. and 600000 a.u.
technique = UPLC-MS/MS metabolomics; refers to = gamma-glutamylphenylalanine; sample = EL4 tumour; setting = normalised to tissue mass; value = 699000 a.u. and 470000 a.u. and 790000 a.u. and 723000 a.u. and 461000 a.u. and 251000 a.u.
technique = UPLC-MS/MS; refers to = kynurenine; cell line = EL4; sample = tumour; setting = normalised to tissue mass; direction = higher = more metabolite; value = 2.37e+06 a.u. and 2.46e+06 a.u. and 2.75e+06 a.u. and 1.23e+06 a.u. and 2.84e+06 a.u. and 1.35e+06 a.u.

Set 5
SMILES: CCCNC(=O)Nc1ccc(Oc2ncnc3cc(OC)c(OC)cc23)cc1Cl
Observed: enzyme activity
Mode: inhibitor
Tested at: 0.5 µM
Baseline: control
Measurement: remaining activity
target = AXL (Homo sapiens, UniProt P30530); value = 101%
target = PDPK1 (Homo sapiens, UniProt O15530); value = 86.8%
target = MAP4K4 (Homo sapiens, UniProt O95819); value = 86.4%
target = EPHA4 (Homo sapiens, UniProt P54764); value = 93.4%
target = BLK (Homo sapiens, UniProt P51451); value = 96.8%
target = TSSK2 (Homo sapiens, UniProt Q96PF2); value = 98.7%
target = STK17A (Homo sapiens, UniProt Q9UEE5); value = 99%
target = HIPK4 (Homo sapiens, UniProt Q8NE63); value = 93.5%
target = PRKACG (Homo sapiens, UniProt P22612); value = 106%
target = STK16 (Homo sapiens, UniProt O75716); value = 93.4%
target = WNK3 (Homo sapiens, UniProt Q9BYP7); value = 93.8%
target = DYRK3 (Homo sapiens, UniProt O43781); value = 99.7%
target = ABL1 (Homo sapiens, UniProt P00519); value = 89%
target = Cyclin-dependent kinase 1, with cyclin B (CDK1, Homo sapiens, UniProt P06493); value = 98%
target = EPHB1 (Homo sapiens, UniProt P54762); value = 95.5%
target = HIPK2 (Homo sapiens, UniProt Q9H2X6); value = 97.9%
target = SRMS (Homo sapiens, UniProt Q9H3Y6); value = 105%
target = RPS6KA5 (Homo sapiens, UniProt O75582); value = 95.6%
target = MAPKAPK3 (Homo sapiens, UniProt Q16644); value = 95.8%
target = EPHB4 (Homo sapiens, UniProt P54760); value = 89.4%
target = Cyclin-dependent kinase 6, with cyclin D3 (CDK6, Homo sapiens, UniProt Q00534); value = 89.5%
target = CAMK2B (Homo sapiens, UniProt Q13554); value = 94.9%
target = RPS6KA6 (Homo sapiens, UniProt Q9UK32); value = 102%
target = Cyclin-dependent kinase 4, with cyclin D3 (CDK4, Homo sapiens, UniProt P11802); value = 101%
target = PHKG1 (Homo sapiens, UniProt Q16816); value = 91.3%

Further values, each from its own experiment
Structure (SMILES) = Cn1cncc1[C@@](O)(COc1ccc(C#N)cc1-c1ccc(OC(F)(F)F)cc1)c1ccc(C#N)cc1; tested on = Tyrosine-protein kinase ABL1, phosphorylated (ABL1, Homo sapiens, UniProt P00519, E255K); assay = binding, competition with immobilised ligand; setting = 1 µM; measurement = remaining binding; value = 72%
Structure (SMILES) = CC(C)n1cnc(-c2ccc(F)cc2)c1-c1ncc(C(=O)Nc2ccc(N3CCN(C)CC3)cc2)[nH]1; system = human, idiopathic pulmonary fibrosis; setting = 30 mg once daily, trial, treatment-emergent; measurement = grade 5 ECG high voltage; value = 0%
